Measured values from different studies.
Each line is one published result; not all experiments were run side by side.

Compound = FC(F)(F)c1ccc(CNc2ccc(Cc3c[nH]c4ncc(Cl)cc34)cn2)cn1; assay = measured: Fatigue; system = patients with advanced solid tumours; setting = oral, dose not given, grade 3 and 4, possibly related to drug; quantity = adverse event incidence; value = 15%
Compound = Cc1c(C(=O)O)ccc2c3n(nc12)[C@@H]1[C@H](C3)N(CC2CC2)[C@@]2(C(=O)Nc3cc(Cl)ccc32)[C@H]1c1cccc(Cl)c1F; assay = phase Ia trial, measured: Headache; system = cancer patients; setting = oral, dose not given; quantity = adverse event incidence; value = 20%
Compound = NCCONC(=O)[C@@H]1CC[C@@H]2CN1C(=O)N2OS(=O)(=O)O; assay = measured: leading to withdrawal; system = healthy Chinese men; setting = intravenous, 2 g, treatment-related; quantity = adverse event incidence; value = 0%
Compound = Cc1cc(Nc2ccc(S(F)(F)(F)(F)F)cc2)n2nc(C(C)(F)F)nc2n1; system = Plasmodium vivax malaria patients; setting = oral, 400 mg; quantity = adverse event Vomiting; value = 0%
Compound = CC[C@H](C)CCCCC(=O)N[C@@H](CCN)C(=O)N[C@H](C(=O)N[C@@H](CCN)C(=O)N[C@H]1CCNC(=O)[C@H]([C@@H](C)O)NC(=O)[C@H](CCN)NC(=O)[C@H](CCN)NC(=O)[C@H](CC(C)C)NC(=O)[C@@H](Cc2ccccc2)NC(=O)[C@H](CCN)NC1=O)[C@@H](C)O; assay = measured: dry mouth; system = all subjects; setting = intravenous, 0.75 mg/kg; quantity = adverse event incidence; value = 18.2%
Compound = Cc1c(Cl)c(C)[n+]([O-])c(Cl)c1-c1noc(-c2cc(O)c(O)c([N+](=O)[O-])c2)n1; system = healthy Chinese subjects; setting = oral, 50 mg, 10 days; quantity = adverse drug reaction incidence; value = 0%
Compound = O=C1CCc2ccc(OCCCCN3CCN(c4cccc(Cl)c4Cl)CC3)cc2N1; assay = measured: Hypotension; system = patients, CYP2D6 ultrarapid metabolizers; setting = dose not given, long-acting oral or depot; quantity = adverse event incidence; value = 13%
Compound = CC(=O)O[C@H]1C(=O)[C@@]2(C)[C@H]([C@H](OC(=O)c3ccccc3)[C@]3(O)C[C@H](OC(=O)[C@H](O)[C@@H](NC(=O)c4ccccc4)c4ccccc4)C(C)=C1C3(C)C)[C@]1(OC(C)=O)CO[C@@H]1C[C@@H]2O; assay = measured: blood alkaline phosphatase increased; system = patients with advanced solid tumours; setting = intravenous, dose not given, phase Ib, related to compound; quantity = adverse events, all grades; value = 13%

A few entries again:
Compound = O=C1CCc2ccc(OCCCCN3CCN(c4cccc(Cl)c4Cl)CC3)cc2N1; assay = measured: Hypotension; system = patients, CYP2D6 ultrarapid metabolizers; setting = dose not given, long-acting oral or depot; quantity = adverse event incidence; value = 13%
